Measurements gathered from unrelated publications.
Compare with care: the assays were run in different laboratories. “And” joins repeats or separate records; there may be more than shown.

| SMILES | target or system | assay | test system | setting | scale | measurement | value |
| --- | --- | --- | --- | --- | --- | --- | --- |
| c1coc(-c2n[nH]cc2-c2ccnc3ccccc23)c1 | TPK1 (Candida albicans) | kinase binding, MIB/MS competition | Candida albicans lysate | 10 µM | baseline: DMSO | log2 fold change | -0.05 |
| Cn1cc(-c2ccc(-c3cncc(Cl)c3N3CCC4(CCNC4=O)CC3)cc2)cn1 | COLO 205 | gene expression, microarray, measured: INHBB mRNA |  | concentration not given, 2 h | baseline: untreated cells | log2 fold change | 2.08 |
| CC(Nc1nc(N2CCCC2)nc2ccccc12)c1ccccc1 (stereo not shown) | importin beta-1 | SREBP1 nuclear import, high content imaging | HeLa Kyoto | 15.82 µM, 3 h, added: glucose and MG132 |  | cells with nuclear SREBP1 | 84.3% and 82.9% and 87.6% and 85.2% |
| [Cl-].[Cl-].[Pt+2].[Ru+2].c1ccc(-c2nc3ccccc3nc2-c2ccccn2)nc1.c1cnc2c(c1)ccc1cccnc12.c1cnc2c(c1)ccc1cccnc12 | pcDNA supercoiled plasmid | agarose gel electrophoresis |  | 50 µM, photoinduced cleavage, added: 0.1 µM pcDNA |  | nicked circular DNA | 15.5% |
| CCn1cc(-c2cc(Cn3ccnc3)cc3c2CCN([C@H](c2cc(OC)ccn2)C2CC2)C3=O)c(C(F)(F)F)n1 | LS-411N | cell growth, inhibitor |  | 120 h |  | EC50 | > 30 µM |
| CC(C)(C)NC[C@H](O)COc1nsnc1N1CCOCC1 | human iPSC-derived cardiomyocytes | MyBP-C/MYH ratio, plate-normalised SD score |  | concentration not given, primary screen | direction not given | activity score | 3.4 |
| CCn1cc(-c2cc(Cn3ccoc3=N)cc3c2CCN([C@@H](C)c2cc(OC)ccn2)C3=O)c(C(F)(F)F)n1 | COLO 320 | cell growth, inhibitor |  | 120 h |  | EC50 | 3.14 µM |
| COC1=C2C[C@@H](C)C[C@H](OC)[C@H](O)[C@@H](C)/C=C(\C)[C@H](OC(N)=O)[C@@H](OC)/C=C\C=C(/C)C(=O)NC(=CC1=O)C2=O | MYBPC3 iPSC cardiomyocytes | plate-normalised |  | concentration not given, 24 h, hit retest |  | MyBP-C level | 3% |
| Oc1ccccc1-c1n[nH]cc1-c1ccnc2ccccc12 | SHA3 (Candida albicans) | kinase binding, MIB/MS competition | Candida albicans lysate | 10 µM | baseline: DMSO | log2 fold change | 0.24 |
| COC(=O)[C@H]1[C@H]2C[C@@H]3c4[nH]c5cc(OC)ccc5c4CCN3C[C@H]2C[C@@H](OC(=O)c2cc(OC)c(OC)c(OC)c2)[C@@H]1OC | human iPSC-derived cardiomyocytes | MyBP-C/MYH ratio, plate-normalised SD score |  | concentration not given, primary screen | direction not given | activity score | 3 |
| COc1cnc2cccc(N3CCc4c(cc(Cn5ccnc5C)cc4-c4cn(C)nc4C(F)(F)F)C3=O)c2c1 | OVISE | cell growth, inhibitor |  | 120 h |  | EC50 | 20.8 µM |
| CC(C)=CCCC1(C)C=Cc2c(O)c3c(c(CC=C(C)C)c2O1)OC12C(=CCCC1C(C)(C)O[C@@]2(C/C=C(\C)C(=O)O)C(=O)O)C3=O (stereo partly shown) | human iPSC-derived cardiomyocytes | MyBP-C/MYH ratio, plate-normalised SD score |  | concentration not given, primary screen | direction not given | activity score | 3.2 |
| CCS(=O)(=O)c1nc(C2CC2)cc(C(F)(F)F)n1 | importin beta-1 | SREBP1 nuclear import, high content imaging | HeLa Kyoto | 1.58 µM, 3 h, added: glucose and MG132 |  | cells with nuclear SREBP1 | 90.5% and 86.3% and 87.4% and 86.8% |
| [Cl-].[Cl-].[Pt+2].[Ru+2].c1ccc(-c2nc3cc4ccccc4cc3nc2-c2ccccn2)nc1.c1cnc2c(c1)ccc1cccnc12.c1cnc2c(c1)ccc1cccnc12 | pcDNA supercoiled plasmid | agarose gel electrophoresis |  | 20 µM, photoinduced cleavage, added: 0.1 µM pcDNA |  | supercoiled DNA | 87.4% |
| CC[S+]([O-])c1nc(-c2ccccc2)cc(C(F)(F)F)n1 (stereo not shown) | importin beta-1 | SREBP1 nuclear import, high content imaging | HeLa Kyoto | 50 µM, 3 h, added: glucose and MG132 |  | cells with nuclear SREBP1 | 49.2% and 41.5% and 44.8% and 33.7% |
| COc1ccc(-c2cc(=O)c3c(O)c(OC)c(OC)c(OC)c3o2)cc1 | human iPSC-derived cardiomyocytes | MyBP-C/MYH ratio, plate-normalised SD score |  | concentration not given, primary screen | direction not given | activity score | 3.8 |

Some of these lines once more:
| SMILES | target or system | assay | test system | setting | scale | measurement | value |
| --- | --- | --- | --- | --- | --- | --- | --- |
| CC(C)=CCCC1(C)C=Cc2c(O)c3c(c(CC=C(C)C)c2O1)OC12C(=CCCC1C(C)(C)O[C@@]2(C/C=C(\C)C(=O)O)C(=O)O)C3=O (stereo partly shown) | human iPSC-derived cardiomyocytes | MyBP-C/MYH ratio, plate-normalised SD score |  | concentration not given, primary screen | direction not given | activity score | 3.2 |
| CCS(=O)(=O)c1nc(C2CC2)cc(C(F)(F)F)n1 | importin beta-1 | SREBP1 nuclear import, high content imaging | HeLa Kyoto | 1.58 µM, 3 h, added: glucose and MG132 |  | cells with nuclear SREBP1 | 90.5% and 86.3% and 87.4% and 86.8% |
